# Published values of several laboratories.
# Lines come from different studies, so protocols differ. “And” joins repeats or separate records; there may be more than shown. ± marks the error that the study gave.
Compound,target or system,assay,test system,setting,scale,quantity,result
O=C(c1ccc(Cl)cc1)N(Cc1ccccc1)C1CCCCC1,KATP channel,,,10 µM,,inhibition,-6.9%
O=c1c(O)c(-c2ccc(O)c(O)c2)oc2cc(O)cc(O)c12,bovine serum albumin,"methylglyoxal-mediated glycation, fluorescence",,concentration not given,,inhibition,99.8 ± 2.03%
CCN1CCN(Cc2ccc(NC(=O)c3ccc(C)c(Oc4ccnc5[nH]ccc45)c3)cc2C(F)(F)F)CC1,ERK1/2 human,,Huh-7,10 µM,,inhibition,-39.1%
CNCc1ccc(-c2cc(-c3nc(-c4ccc(S(=O)(=O)C(C)C)cc4)cnc3N)on2)cc1,AMPK (rat),inhibitor,,"2 µM, together with: ATP at Km",,inhibition,20%
COCCN(C)C(=O)c1ccc([C@H]2[C@@H](F)[C@@H](F)C[C@@H](F)[C@H]2F)cc1,,liver microsome stability,cynomolgus liver microsomes,1 µM,,hepatic clearance,13 mL/min/kg
O=C(c1ccc(F)cc1)N(Cc1ccccc1)C1CCCCC1,KATP channel,binding,,10 µM,,inhibition,22%
CCN(CC)CCNC(=O)c1c(C)[nH]c(/C=C2\C(=O)Nc3ccc(F)cc32)c1C,AMPK (rat),"kinase activity, inhibitor",,0.3 µM,,inhibition,7%
Oc1cccc(Nc2nc(-c3ccc(F)cc3F)cs2)c1,GABA transporter,,,10 µM,,inhibition,-11.9%
O=C(NOCC(O)CO)c1cc(Br)c(F)c(F)c1Nc1ccc(I)cc1F (centres unmarked),TDO,kynurenine production,A-172,1 µM,,inhibition,20%
CNC(=O)c1cc(Oc2ccc(NC(=O)Nc3ccc(Cl)c(C(F)(F)F)c3)cc2)ccn1,AMPK (rat),"kinase activity, inhibitor",,10 µM,,inhibition,-2%
O=C1C[C@@H](c2ccccc2)Oc2cc(O)cc(O)c21,bovine serum albumin,"methylglyoxal-mediated glycation, fluorescence",,concentration not given,,inhibition,47.6 ± 3.64%
COCCC(=O)Nc1ccc([C@H]2[C@@H](F)[C@@H](F)C[C@@H](F)[C@H]2F)cc1,,liver microsome stability,rat liver microsomes,1 µM,,hepatic clearance,6.4 mL/min/kg
COc1cc(NC(C)=O)c(Cl)cc1C(=O)Nc1nccs1,GABA transporter,,,10 µM,,inhibition,3%
COc1cc(O)c2c(c1)O[C@H](c1ccccc1)CC2=O,bovine serum albumin,"methylglyoxal-mediated glycation, fluorescence",,concentration not given,,inhibition,11.9 ± 3.63%
Cn1cc(-c2ccc(-c3cncc(Cl)c3N3CCC4(CCNC4=O)CC3)cc2)cn1,COLO 205,"microarray, measured: TXNIP",,"concentration not given, 6 h",reference: untreated cells,fold change in expression,2.18
O=c1cc(-c2ccccc2)oc2cc(O)cc(O)c12,bovine serum albumin,"methylglyoxal-mediated glycation, fluorescence",,concentration not given,,inhibition,54 ± 2.71%
C#Cc1cc(-c2cc(Nc3nc(N[C@@H](C)c4ccc(F)cn4)ncc3Cl)n[nH]2)ccc1C=O,"NPM1-ALK kinase fusion, human","kinase activity, inhibitor",,0.2 µM,,inhibition,39.9% and 36.8%

# Excerpt of the above:
Compound,target or system,assay,test system,setting,scale,quantity,result
O=C1C[C@@H](c2ccccc2)Oc2cc(O)cc(O)c21,bovine serum albumin,"methylglyoxal-mediated glycation, fluorescence",,concentration not given,,inhibition,47.6 ± 3.64%
